Results pooled from the literature.
Each line is one published result; not all experiments were run side by side.
Target: Serine/threonine-protein kinase Sgk2 (SGK2, Homo sapiens, UniProt Q9HBY8)

The remaining activity of `COc1c(OCCCN2CCOCC2)ccc2c1N=C(NC(=O)c1cnc(N)nc1)N1CCN=C21` is reported as 78% (kinase activity, inhibitor; 1 µM; relative to: untreated control).
The inhibition of `NC(=O)[C@@H](O)C[C@H]1CCc2sc3ncnc(O[C@H]4CC[C@H](N5CCOCC5)CC4)c3c21` is reported as 7% (enzyme activity, inhibitor; 10 µM).
`O=C(Cc1ccc(OCc2ccccc2)cc1)NC1(C(=O)O)CCN(C(=O)c2ccc(-c3cccc(Cl)c3)cc2)CC1`: “activity vs control” 127% (enzyme activity, inhibitor; 10 µM).
With `Cc1ccc(C(=O)Nc2ccc(CN3CCN(C)CC3)c(C(F)(F)F)c2)cc1C#Cc1cnc2cccnn12` the Hill slope was 0.111 (target engagement, NanoBRET; human cells).
For `Nc1ncc2c(n1)-c1c([nH]c3ccc(C4=CCOCC4)cc13)CCC2`, the remaining binding was 100% (binding, competition with immobilised ligand; 1 µM).
The inhibition of `C=CC(=O)Nc1cccc(-c2cnc3[nH]cc(C(=O)NC(C)(C)C)c3n2)c1` is reported as 3% (enzyme activity, inhibitor; 0.1 µM).
With `CC(C)=CC1OC(C)(C)C2C=C3C(=O)C(Cl)=CC(O)C3C3C(O)C4OC4C(=O)C132` (stereo not drawn) the remaining binding was 75% (cell-free assay, competition with immobilised ligand; 10 µM).
With `C=CC(=O)N1Cc2nc(-c3cc(-c4cc(Cl)cnc4Cl)c(F)cc3F)n(-c3ccncn3)c2C1` the inhibition was 1.9% (cell-free assay, inhibitor; 1 µM).
`CNC1C[S+]2CC[S+]3CC[S+](C1)[Ru-4]321([N]=C=S)[n]2c3ccc(OC)cc3c3c4c(c5cc(F)c[n+]1c5c32)C(=O)NC4=O` (stereo not drawn) gave a remaining binding of 86% (KinomeScan; 0.1 µM; relative to: untreated).
For `Cc1cccc(O[C@H]2CCC[C@@H](C(C)CNCc3ccncc3)C2)c1` (relative stereo), the inhibition was -16% (enzyme activity, inhibitor; 10 µM).
`CNC(=O)C1CCN(c2cc(C)c(F)cc2NC(=O)c2ccc(-c3cc(O)ccc3C)c(C)c2)CC1` gave a remaining binding of 100% (binding, competition with immobilised ligand; 1 µM).
The inhibition of `CN1CC[C@@H](COc2cnc(C#N)cc2-c2ccn3nc(NC(=O)C4CC4)cc3c2)C1` is reported as 3% (enzyme activity, inhibitor; 1 µM).
For `CN1CCN(Cc2ccc(-c3ccc(CO[C@H]4CCC[C@@H]4NC(=O)c4cc(-c5cnn(C)c5)cnc4N)cc3)cc2)CC1`, the inhibition was 9% (enzyme activity, inhibitor; 0.1 µM).
For `Nc1ncc(-c2cc(-c3cnn(CC(F)(F)F)c3)ncc2F)nc1C(=O)NC1CNCC(F)C1` (stereo not drawn), the remaining activity was 98.2% (enzyme activity; 1 µM; relative to: DMSO control).
With `COc1cc(Nc2nc(C)cc(-c3cnn4nc(OC)ccc34)n2)cc(C(F)(F)F)c1` the remaining binding was 78% (binding, competition with immobilised ligand; 1 µM).

Some of these lines once more:
For `Nc1ncc(-c2cc(-c3cnn(CC(F)(F)F)c3)ncc2F)nc1C(=O)NC1CNCC(F)C1` (stereo not drawn), the remaining activity was 98.2% (enzyme activity; 1 µM; relative to: DMSO control).
With `COc1cc(Nc2nc(C)cc(-c3cnn4nc(OC)ccc34)n2)cc(C(F)(F)F)c1` the remaining binding was 78% (binding, competition with immobilised ligand; 1 µM).
